Measured values of several laboratories.
Each numbered part is a random draw from the data of one study; scales do not carry over between parts.

Set 1 — technique: protein binding microarray; form: double-stranded DNA, one strand shown; matrix: in vitro; tested at: not given; relative to: not given; reading: higher = stronger binding; measurement: E-score
Target: Histone acetyltransferase KAT6A, both winged helices, GST fusion (KAT6A, Homo sapiens, UniProt Q92794, residues 1-181)
Notes: 8-mer, flanks averaged, mean of 2 arrays, mostly near background
Target sequence (chain): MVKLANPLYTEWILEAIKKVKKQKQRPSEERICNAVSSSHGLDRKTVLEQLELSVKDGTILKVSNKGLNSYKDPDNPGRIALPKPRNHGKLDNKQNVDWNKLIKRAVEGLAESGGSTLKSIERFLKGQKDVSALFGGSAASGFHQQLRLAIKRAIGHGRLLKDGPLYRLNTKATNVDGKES
Sequence = ACACCAGC; value = -0.0841
Sequence = AGTAGATC; value = -0.162
Sequence = CGGGTCAA; value = 0.173
Sequence = AGGCAGCA; value = -0.227
Sequence = CAACTCGA; value = -0.149
Sequence = AACACCAC; value = -0.0218

Set 2 — technique: RNA Bind-n-Seq; form: RNA; matrix: in vitro; tested at: 365 nM; relative to: no-protein control; reading: higher = stronger binding; measurement: RBNS enrichment (R)
Target: RNA binding protein fox-1 homolog 2, RRM domain, GST-SBP tag (RBFOX2, Homo sapiens, UniProt O43251-10, residues 100-194)
Notes: natural RNA segment, single round, ends assumed
Construct (chain): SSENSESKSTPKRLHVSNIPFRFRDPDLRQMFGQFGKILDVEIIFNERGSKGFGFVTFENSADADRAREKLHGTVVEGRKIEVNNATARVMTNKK
Sequence = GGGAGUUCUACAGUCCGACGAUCUUGUUUAUUAGAUACAUCACUGCUUUAUGAAGCAAGGAAGAUAUACAUGAAAAAAUUUAAAUACAUAUCGCUGACUCCAUUGAAUGGACAUCCUGUAUAAGCACUGAGAAUGGAAUUCUCGGGUGCCAA; value = 0.294
Sequence = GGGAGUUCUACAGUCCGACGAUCAUGAUGGCAUGAAGUAAAAGGGGCCUCAAUGAUGAUAGGAAAAUCAGUUCUUUUAAAAUUUCUUCAAGAAAAUCCAGGCUAUCACAUAGUCUUUCUGUGUGACUUAUUAGUGGAAUUCUCGGGUGCCAA; value = 0.896
Sequence = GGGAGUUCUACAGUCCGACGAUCUCUCUUCCAAGUCUCCAGAUUCUGGAACUCCCGUGUCUUUUUCUUUUCUCACUUGCACCCCUGCACCUCGUUAUGACCCCUAUUUUUCUGGGAUUUUCUUGGUCCUCAUUUGGAAUUCUCGGGUGCCAA; value = 4.87
Sequence = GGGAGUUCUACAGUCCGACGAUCGCUUUUGGUGAGAAGGUGUUGGACAGGGGAUUGGCGCCCCCCUUUGGUUUGGCCUCCAUCCUCAUCUCUCUUGGGCCAAGCCAGCUGCCUAGGUCCCCCAAGCAUGGGGGUGGAAUUCUCGGGUGCCAA; value = 0.392
Sequence = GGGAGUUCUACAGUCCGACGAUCAAAACGGCAGCACCUCACGGCUGUCUUUCUAGGAUCCUCCAUUAUUCCUUAGAAGCAAGGACCUGGUCCAGUGGCGGUGCCUCAGUUCACACUCCCUCUGACGGACGGACUGGAAUUCUCGGGUGCCAA; value = 0.31

Set 3 — technique: protein-binding microarray; form: double-stranded DNA, one strand shown; matrix: in vitro; tested at: not given; reading: higher = stronger binding; measurement: E-score
Target: Protein C-ets-1 (ETS1, Homo sapiens, UniProt P14921, residues 1-441, full length assumed)
UniProt P14921, sequence (whole entry, looked up): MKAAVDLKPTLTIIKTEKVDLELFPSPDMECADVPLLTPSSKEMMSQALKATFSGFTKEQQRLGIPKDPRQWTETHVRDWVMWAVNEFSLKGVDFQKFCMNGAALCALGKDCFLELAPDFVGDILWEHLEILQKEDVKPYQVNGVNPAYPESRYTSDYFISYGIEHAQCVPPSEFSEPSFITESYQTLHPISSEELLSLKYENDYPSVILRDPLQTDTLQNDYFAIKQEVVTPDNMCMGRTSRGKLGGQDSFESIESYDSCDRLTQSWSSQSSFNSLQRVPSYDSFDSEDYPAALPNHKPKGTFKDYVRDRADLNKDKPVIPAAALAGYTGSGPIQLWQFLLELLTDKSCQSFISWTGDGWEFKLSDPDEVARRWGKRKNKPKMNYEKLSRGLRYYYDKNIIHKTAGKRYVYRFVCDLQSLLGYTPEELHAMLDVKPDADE
Notes: k-mer, scored over probes, only values ≥0.25
Sequence = CCCGGAAC; value = 0.436
Sequence = CCCGCCCC; value = 0.364
Sequence = CGGATTTA; value = 0.278
Sequence = CGGATGAG; value = 0.43
Sequence = CCGGAAGC; value = 0.495

Single results of other studies
Molecule = PhoQ, residues 284 288 289 292 302 303 AANNSF; target = PhoP, residues 12 14 15 18 19 IFFTR (Escherichia coli, UniProt P23836); test = Sort-seq, item: YFP reporter; system = E. coli; setting = PhoQ-PhoP variant library, with: 10 µM Mg2+; scale = relative to: high Mg2+ state, higher = stronger signaling; measurement = fold induction; value = 9.4
